# Measured values of several laboratories.
# Compare with care: the assays were run in different laboratories.
Structure (SMILES),target or system,assay,test system,conditions,endpoint,value
COc1cc(-c2nc3ccccc3c(=O)n2Nc2ccc([N+](=O)[O-])cc2[N+](=O)[O-])ccc1OCc1cn(CC(=O)Nc2ccc([N+](=O)[O-])cc2C)nn1,,"DPPH scavenging, absorbance",,100 µM,inhibition,23.1%
CCCCn1cnc2ccc(-c3ccc(NC(=O)NCC)nc3)cc2c1=O,NCI-H1975,"cell growth or viability, CCK-8",,72 h,IC50,7.43 µM
CC(C)Nc1ccnc(Nc2cccc(-c3ccccc3)c2)n1,BJ,"cell growth or viability, ATP luminescence",,72 h,EC50,> 20 µM
Cc1cc(C)c(C#N)c(SCC(=O)c2ccccc2O)n1,Trypanosoma brucei,"parasite growth, resazurin",RHODESIENSE,,EC50,62.5 µM
CCCCCC(=O)Nc1ccc(-c2ccc3ncn(Cc4ccccc4)c(=O)c3c2)cn1,HCC827,"cell growth or viability, CCK-8",,72 h,IC50,> 10 µM
COc1cccc(C(=O)C[S+]([O-])c2nc(C)cc(C)c2C#N)c1 (stereo not shown),Leishmania infantum,parasite growth,mouse Macrophage,"intracellular, amastigote",EC50,24.9 µM
CCCn1cnc2ccc(-c3ccc(NC(=O)CNC(C)C)nc3)cc2c1=O,NCI-H1975,"cell growth or viability, CCK-8",,72 h,IC50,> 10 µM
O=S(=O)(Nc1nccs1)c1ccc(N=NN(O)c2ccccc2)cc1,,"DPPH scavenging, absorbance",,300 µg/mL,inhibition,37.7%
O=C1O[C@H]([C@@H](O)CO)C(O)=C1O,,DPPH scavenging,,125 µg/mL,inhibition,60.5%
COc1cc(-c2cc(=O)c3c(O)cc(O)cc3o2)ccc1O,Helicobacter pylori,"microbial growth, broth dilution",,1.95 µg/mL,inhibition,73.2%
CC(=NNC(=O)c1ccc(N)cc1)c1ccc(Nc2nnc(-c3ccc(Cl)cc3)c3ccccc23)cc1,HepG2,"cell growth or viability, MTT",,10 µM,cell death,91.6%
COc1cc(-c2nc3ccccc3c(=O)n2Nc2ccc([N+](=O)[O-])cc2[N+](=O)[O-])ccc1OCc1cn(CC(=O)Nc2ccc([N+](=O)[O-])cc2)nn1,,"DPPH scavenging, absorbance",,100 µM,inhibition,17.2%
CC[C@H]1OC(=O)[C@H](C)[C@@H](O[C@H]2C[C@@](C)(OC)[C@@H](O)[C@H](C)O2)[C@H](C)[C@@H](O[C@@H]2O[C@H](C)C[C@H](N(C)C)[C@H]2O)[C@](C)(OC)C[C@@H](C)C(=O)[C@H](C)[C@@H](O)[C@]1(C)O,Helicobacter pylori,"microbial growth, broth dilution",,0.48 µg/mL,inhibition,87.7%
Cc1cc(C)c(C#N)c(SCC(=O)c2cccc(N)c2)n1,Leishmania infantum,parasite growth,mouse Macrophage,"intracellular, amastigote",EC50,> 64 µM
C=C[C@@]1(C)C=C2CC[C@@H]3[C@](C)(CCC[C@@]3(C)C(=O)O)[C@H]2CC1,Helicobacter pylori,"microbial growth, broth dilution",,0.98 µg/mL,inhibition,26.4%
COc1ccccc1C(=O)CSc1nc(C)cc(C)c1C#N,Trypanosoma brucei,"parasite growth, resazurin",,,EC50,> 64 µM
CC(=NNC(=O)c1ccccc1)c1ccc(Nc2nnc(-c3ccc(Cl)cc3)c3ccccc23)cc1,HepG2,"cell growth or viability, MTT",,"5 µM, 24 h",viability,2.73%
O=C(Nc1ccc(-c2ccc3ncn(Cc4ccccc4)c(=O)c3c2)cn1)c1ccc(F)cc1,NCI-H1975,"cell growth or viability, CCK-8",,72 h,IC50,> 10 µM
Cc1cc(C)c(C#N)c(SCC(=O)c2cccs2)n1,Trypanosoma brucei,"parasite growth, resazurin",RHODESIENSE,,EC50,> 64 µM
CN(Cc1ccc(C(C)(C)C)cc1)Cc1cccc2ccccc12,Trichophyton mentagrophytes,"microbial growth, disc diffusion",ATCC18748,"0.001 µg/mL, 72 h",inhibition zone,19.2 mm
Cc1noc(NS(=O)(=O)c2ccc(N=NN(O)c3ccccc3)cc2)c1C,,"DPPH scavenging, absorbance",,120 µg/mL,inhibition,12.2%
COC(=O)c1ccc(O)cc1,Helicobacter pylori,"microbial growth, broth dilution",,62.5 µg/mL,inhibition,100%
CCCCn1cnc2ccc(-c3ccc(NC(=O)NC(C)(C)C)nc3)cc2c1=O,NCI-H1975,"cell growth or viability, CCK-8",,72 h,IC50,5.66 µM
O=C(O)c1ccc(O)cc1,Helicobacter pylori,"microbial growth, broth dilution",,0.98 µg/mL,inhibition,100%
Cc1ccc(N(O)N=Nc2ccc(S(=O)(=O)Nc3onc(C)c3C)cc2)cc1,,"DPPH scavenging, absorbance",,180 µg/mL,inhibition,29.4%
O=c1cc(-c2ccc(O)cc2)oc2cc(O)cc(O)c12,Helicobacter pylori,"microbial growth, broth dilution",,62.5 µg/mL,inhibition,100%
c1cc(Nc2nccc(NC3CCCCC3)n2)cc(-c2cnccn2)c1,BJ,"cell growth or viability, ATP luminescence",,72 h,EC50,> 12 µM
COc1cc(-c2nc3ccccc3c(=O)n2Nc2ccc([N+](=O)[O-])cc2[N+](=O)[O-])ccc1OCc1cn(CC(=O)Nc2ccc([N+](=O)[O-])cc2Cl)nn1,,"DPPH scavenging, absorbance",,100 µM,inhibition,12.5%
O=C(Nc1ccc(Oc2nnc(-c3ccc(Cl)cc3)c3ccccc23)cc1)c1cccc([N+](=O)[O-])c1,HepG2,"cell growth or viability, MTT",,0.312 µM,cell death,0.43%
COc1ccc(-c2cc(=O)c3c(O)cc(O[C@@H]4O[C@H](CO)[C@@H](O)[C@H](O)[C@H]4O)cc3o2)cc1O,Helicobacter pylori,"microbial growth, broth dilution",,0.98 µg/mL,inhibition,100%
CCCN(O)N=Nc1ccc(S(=O)(=O)Nc2onc(C)c2C)cc1,,"DPPH scavenging, absorbance",,20 µg/mL,inhibition,3.45%
O=C(Nc1ccccc1)Nc1ccc(Oc2nnc(-c3ccc(Cl)cc3)c3ccccc23)cc1,HepG2,"cell growth or viability, MTT",,"5 µM, 24 h",viability,5.07%
CN(Cc1ccc(C2(C(F)(F)F)CC2)cc1)Cc1cccc2ccccc12,Trichophyton mentagrophytes,"microbial growth, disc diffusion",ATCC18748,"0.064 µg/mL, 72 h",inhibition zone,55 mm
O=C(Nc1ccc(Oc2nnc(-c3ccc(Cl)cc3)c3ccccc23)cc1)c1ccccc1,MCF7,"cell growth or viability, MTT",,0.312 µM,cell death,95.3%
COc1ccnc(SCC(=O)c2ccccc2)c1C#N,Leishmania infantum,parasite growth,mouse Macrophage,"intracellular, amastigote",EC50,51 µM
CCCCCC(=O)Nc1ccc(-c2ccc3ncn(CC4CC4)c(=O)c3c2)cn1,NCI-H1975,"cell growth or viability, CCK-8",,72 h,IC50,1.68 µM
Cc1cc(C)c(C(N)=O)c(SCC(=O)c2ccc(F)cc2)n1,Leishmania infantum,parasite growth,mouse Macrophage,"intracellular, amastigote",EC50,> 64 µM
Cc1ccc(N(O)N=Nc2ccc(S(=O)(=O)Nc3cc(C)on3)cc2)cc1,,"DPPH scavenging, absorbance",,20 µg/mL,inhibition,13%
COc1cc(-c2nc3ccccc3c(=O)n2Nc2ccc([N+](=O)[O-])cc2[N+](=O)[O-])ccc1OCc1cn(CC(=O)Nc2ccccc2F)nn1,,"DPPH scavenging, absorbance",,100 µM,inhibition,28.2%
CN(O)N=Nc1ccc(S(=O)(=O)Nc2nccs2)cc1,,"DPPH scavenging, absorbance",,300 µg/mL,inhibition,30.5%
O=C(C=Cc1ccccc1)Nc1ccc(Oc2nnc(-c3ccc(Cl)cc3)c3ccccc23)cc1,HepG2,"cell growth or viability, MTT",,5 µM,cell death,97.5%
Cc1cc(C)c(C#N)c(SC2COc3ccccc3C2=O)n1 (stereo not shown),Trypanosoma brucei,"parasite growth, resazurin",RHODESIENSE,,EC50,> 64 µM
CC(=NNC(=S)Nc1ccccc1)c1ccc(Nc2nnc(-c3ccc(Cl)cc3)c3ccccc23)cc1,HepG2,"cell growth or viability, MTT",,2.5 µM,cell death,77.5%
CCN(O)N=Nc1ccc(S(=O)(=O)Nc2cc(C)on2)cc1,,"DPPH scavenging, absorbance",,20 µg/mL,inhibition,12.2%
S=C(Nc1ccccc1)Nc1ccc(Oc2nnc(-c3ccc(Cl)cc3)c3ccccc23)cc1,HepG2,"cell growth or viability, MTT",,5 µM,cell death,94.7%
CCN(O)N=Nc1ccc(S(=O)(=O)Nc2nccs2)cc1,,"DPPH scavenging, absorbance",,120 µg/mL,inhibition,14.9%

# A few entries again:
Structure (SMILES),target or system,assay,test system,conditions,endpoint,value
Cc1cc(C)c(C#N)c(SCC(=O)c2cccs2)n1,Trypanosoma brucei,"parasite growth, resazurin",RHODESIENSE,,EC50,> 64 µM
CN(Cc1ccc(C(C)(C)C)cc1)Cc1cccc2ccccc12,Trichophyton mentagrophytes,"microbial growth, disc diffusion",ATCC18748,"0.001 µg/mL, 72 h",inhibition zone,19.2 mm
Cc1noc(NS(=O)(=O)c2ccc(N=NN(O)c3ccccc3)cc2)c1C,,"DPPH scavenging, absorbance",,120 µg/mL,inhibition,12.2%
COC(=O)c1ccc(O)cc1,Helicobacter pylori,"microbial growth, broth dilution",,62.5 µg/mL,inhibition,100%
CCCCn1cnc2ccc(-c3ccc(NC(=O)NC(C)(C)C)nc3)cc2c1=O,NCI-H1975,"cell growth or viability, CCK-8",,72 h,IC50,5.66 µM
O=C(O)c1ccc(O)cc1,Helicobacter pylori,"microbial growth, broth dilution",,0.98 µg/mL,inhibition,100%
